Measured values collected from several papers.
Parts stem from different laboratories: compare values within a part only. Several values in a cell are separate wells, animals, samples, runs or records.
Chain of UniProt P11388 (whole entry, looked up): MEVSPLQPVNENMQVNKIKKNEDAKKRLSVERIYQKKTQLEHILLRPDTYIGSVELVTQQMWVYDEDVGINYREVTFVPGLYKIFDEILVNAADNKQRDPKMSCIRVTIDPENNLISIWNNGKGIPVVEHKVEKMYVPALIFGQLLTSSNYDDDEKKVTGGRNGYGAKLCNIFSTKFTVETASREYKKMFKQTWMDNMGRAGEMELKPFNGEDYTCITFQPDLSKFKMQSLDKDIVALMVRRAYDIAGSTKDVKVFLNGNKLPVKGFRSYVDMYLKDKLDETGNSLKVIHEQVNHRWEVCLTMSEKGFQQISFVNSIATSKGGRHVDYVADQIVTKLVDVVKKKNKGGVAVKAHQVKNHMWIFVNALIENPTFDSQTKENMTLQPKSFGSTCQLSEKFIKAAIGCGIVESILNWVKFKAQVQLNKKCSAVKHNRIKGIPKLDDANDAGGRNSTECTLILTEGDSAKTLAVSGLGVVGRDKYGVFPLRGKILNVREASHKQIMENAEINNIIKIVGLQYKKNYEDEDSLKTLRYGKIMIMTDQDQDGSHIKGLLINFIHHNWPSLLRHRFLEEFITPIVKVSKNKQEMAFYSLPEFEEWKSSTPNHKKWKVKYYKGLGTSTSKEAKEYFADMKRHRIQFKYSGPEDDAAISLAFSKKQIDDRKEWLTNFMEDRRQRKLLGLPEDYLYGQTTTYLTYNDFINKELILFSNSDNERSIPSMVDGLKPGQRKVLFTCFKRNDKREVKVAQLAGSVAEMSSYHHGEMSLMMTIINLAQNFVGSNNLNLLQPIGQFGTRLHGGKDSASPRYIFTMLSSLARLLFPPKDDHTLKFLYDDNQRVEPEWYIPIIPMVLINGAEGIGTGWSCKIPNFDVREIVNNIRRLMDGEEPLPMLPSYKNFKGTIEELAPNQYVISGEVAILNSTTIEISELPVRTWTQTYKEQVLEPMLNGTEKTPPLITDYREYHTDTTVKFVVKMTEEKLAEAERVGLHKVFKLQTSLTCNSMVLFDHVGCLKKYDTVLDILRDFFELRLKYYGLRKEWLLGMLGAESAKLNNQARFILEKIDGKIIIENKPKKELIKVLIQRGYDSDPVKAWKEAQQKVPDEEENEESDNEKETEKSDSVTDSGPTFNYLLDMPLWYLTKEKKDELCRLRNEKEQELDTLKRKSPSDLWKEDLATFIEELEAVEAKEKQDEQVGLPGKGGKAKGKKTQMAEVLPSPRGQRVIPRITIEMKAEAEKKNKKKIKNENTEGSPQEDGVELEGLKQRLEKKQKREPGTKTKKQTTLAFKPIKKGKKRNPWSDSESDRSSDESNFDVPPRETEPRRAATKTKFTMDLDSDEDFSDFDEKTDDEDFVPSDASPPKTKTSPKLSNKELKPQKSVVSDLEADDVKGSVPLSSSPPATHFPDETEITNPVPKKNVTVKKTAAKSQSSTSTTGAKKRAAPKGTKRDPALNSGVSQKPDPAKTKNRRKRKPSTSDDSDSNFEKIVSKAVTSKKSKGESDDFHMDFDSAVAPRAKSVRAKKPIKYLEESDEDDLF
Chain of UniProt Q9UQM7 (whole entry, looked up): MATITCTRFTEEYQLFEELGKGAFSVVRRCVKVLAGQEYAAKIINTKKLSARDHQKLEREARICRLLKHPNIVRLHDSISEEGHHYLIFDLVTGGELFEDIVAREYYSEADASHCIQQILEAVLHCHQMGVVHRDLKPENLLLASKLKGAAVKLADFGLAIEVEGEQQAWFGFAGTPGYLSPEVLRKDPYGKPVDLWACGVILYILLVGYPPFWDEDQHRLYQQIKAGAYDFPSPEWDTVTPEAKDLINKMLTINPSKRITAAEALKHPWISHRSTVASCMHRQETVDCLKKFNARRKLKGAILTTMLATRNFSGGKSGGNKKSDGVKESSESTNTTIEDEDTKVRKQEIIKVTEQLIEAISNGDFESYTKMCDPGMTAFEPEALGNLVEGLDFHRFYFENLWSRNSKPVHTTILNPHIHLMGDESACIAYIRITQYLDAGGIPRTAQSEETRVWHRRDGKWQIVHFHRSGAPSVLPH

Sample 1
Cell line: HEK-293T/ACE2
Observed: pseudovirus infection
Organism: VSV pseudotyped with SARS-CoV-2 spike
Concentration: 10 µM
Time: 16 h
Baseline: vehicle-treated
| Compound | GFP-positive cells [%] |
| --- | --- |
| C=C1C[C@@H]2[C@H](CC[C@]3(C)C(=O)CC[C@@H]23)[C@@]2(C)C=CC(=O)C=C12 | 71.3 |
| C[C@H](O)C(=O)Nc1c(I)c(C(=O)NC(CO)CO)c(I)c(C(=O)NC(CO)CO)c1I | 62.7 |
| CN(C)CC(c1ccc(O)cc1)C1(O)CCCCC1 (centres unmarked) | 66.4 |

Sample 2
Target: Interferon regulatory factor 5, full length, phosphomimetic (IRF5, Homo sapiens, UniProt Q13568-2, residues 1-514, K96S/S451D/S453D/S456D/S462D)
Method: protein-binding microarray
Molecule type: double-stranded DNA, one strand shown
Sample: in vitro
Concentration: 250 nM
Notes: 60-bp whole probe
Added: salmon DNA 0.4 mg/ml
Baseline: random background probes
Reading: higher = stronger binding
Constant ends, left off below: GCCTAGCAC … GTCTTGATTCGCTTGACGCTGCTG
| Sequence | log fluorescence |
| --- | --- |
| GACCGTATCGACACTGGGGACGTGCTA | 1.39 z-score |
| GACGATTTCGGGTTTGGAGACGTGCTA | 3.17 z-score |
| TTAGCTTTCGGTCTCGGTTAGTGCTAG | 10.7 z-score |
| GACGATTTCAGTATCGAGAGGTGCTAG | 3.52 z-score |
| TTAGGACTGGGACTTGGTTAGTGCTAG | -0.671 z-score |
| GACGAACTGGGGTATCGAGATGTGCTA | 0.283 z-score |
| CATCTCGGGCCGCCGGGCCGGTGCTAG | -0.76 z-score |
| GACGGTATCGACTATCAGGACGTGCTA | 3 z-score |

Sample 3
Target: Replicase polyprotein 1ab, nsp13 helicase (rep, Severe acute respiratory syndrome coronavirus 2, UniProt P0DTD1)
Mode: inhibitor
Concentration: 20 µM
| Structure (SMILES) | inhibition [%] |
| --- | --- |
| Cn1cnc2c1c(=O)[nH]c(=O)n2C | -1.32 |
| CCOC(=O)c1ccc(-c2ccc(OC(=O)N(C)Cc3cccc(-c4ccncc4)c3)cc2)cc1 | 3.25 |
| C[C@@H]1[C@H](O)[C@@H](C)/C=C/C=C/C=C/C=C/C=C/C=C/C=C/[C@H](O[C@@H]2O[C@H](C)[C@@H](O)[C@H](N)[C@@H]2O)C[C@@H]2O[C@](O)(C[C@@H](O)C[C@@H](O)[C@H](O)CC[C@@H](O)C[C@@H](O)CC(=O)O[C@H]1C)C[C@H](O)[C@H]2C(=O)O | 15.7 |
| O=C1O[C@H](CO)[C@@H](O)[C@H](O)[C@H]1O | -1.42 |
| C[C@@H]1CN(CC(=O)Nc2ccc3c(c2)Cc2cccc(-c4cc(=O)cc(N5CCOCC5)o4)c2S3)C[C@H](C)O1 | 12.6 |
| CCOc1ccccc1C(=O)O | 5.77 |
| CCc1cccc(CC)c1NC1=NCCN1 | 0.49 |
| N#Cc1ncccn1 | -0.08 |
| CC(=O)N[C@@H](CS)C(=O)O | 1.24 |
| CC(C)n1c(=O)n(C(=O)NC2C[C@H]3CC[C@@H](C2)N3C)c2ccccc21 (some centres unmarked) | -1.12 |
| O=C1C=CC[C@@H]2[C@H]3CCCN4CCC[C@@H](CN12)[C@@H]34 | -2.53 |
| CC(C)[C@H](O)C(=O)N[C@@H](C)C(=O)N[C@@H]1C(=O)N(C)CCc2ccccc21 | -0.41 |
| O=C(OCCOCCO)c1ccccc1Nc1cccc(C(F)(F)F)c1 | 1.46 |
| CC(=O)N[C@H]1[C@H]([C@H](O)[C@H](O)CO)OC(C(=O)O)=C[C@@H]1NC(=N)N | 0.69 |
| CNCC(O)c1ccc(O)c(O)c1 (racemic) | 66.6 |
| CN(C)C(=O)[C@H](O)[C@H](Cc1ccccc1)NC(=O)c1cc2cc(Cl)ccc2[nH]1 | -6.14 |
| CCCCOC(=O)c1ccc(O)cc1 | -4.97 |
| CC1(C)O[C@@H]2C[C@H]3[C@@H]4CCC5=CC(=O)C=C[C@]5(C)[C@H]4[C@@H](O)C[C@]3(C)[C@]2(C(=O)CO)O1 | 5.9 |
| CNC(=O)[C@@H](c1ccccc1)N1CCc2cc(OC)c(OC)cc2[C@@H]1CCc1ccc(C(F)(F)F)cc1 | 2.63 |
| CCCCN1CCCC1CNC(=O)c1cc(C#N)c2ccccc2c1OC (centres unmarked) | 10.1 |
| CC1(S(=O)(=O)O)CC(=O)c2ccccc2C1=O (centres unmarked) | 0.24 |
| O=C1CN=C(c2cccc(Br)c2)c2oc3ccccc3c2N1 | 10.5 |
| C[C@H](CCC(=O)O)[C@H]1CC[C@H]2[C@@H]3[C@@H](O)C[C@@H]4C[C@H](O)CC[C@]4(C)[C@H]3CC[C@]12C | 5.5 |
| Cc1cccc(NC(=O)CN2CCC(c3ccccn3)CC2)c1 | 7.92 |
| CC(C)NNC(=O)c1ccncc1 | 4.06 |

Sample 4
SMILES: CC(C)n1cnc(-c2ccc(F)cc2)c1-c1ncc(C(=O)Nc2ccc(N3CCN(C)CC3)cc2)[nH]1
Method: phase 2a clinical trial
Item: injury and poisoning (SOC)
Species: idiopathic pulmonary fibrosis patients
| dose | notes | patients with TEAEs [%] |
| --- | --- | --- |
| dose not given | grade 4, all drug arms | 0 |
| 30 mg once daily | grade 3 maximum intensity | 0 |
| 60 mg once daily | grade 4 maximum intensity | 0 |
| dose not given | grade 5, all drug arms | 0 |
| 30 mg once daily | grade 1 maximum intensity | 0 |

Sample 5
Target: Replicase polyprotein 1ab, main protease (rep, Severe acute respiratory syndrome coronavirus 2, UniProt P0DTD1)
Observed: enzyme activity
Mode: inhibitor
Concentration: 20 µM
| SMILES | inhibition |
| --- | --- |
| Oc1cc(CNC(=S)/C=C/c2cc(O)c(O)c(Br)c2)cc(O)c1O | -4.64% |
| CN1C(=O)C(N2CCCCC2)S/C1=C\C(=O)O (centres unmarked) | 3.46% |
| Cc1ccccc1N(C)C(=O)c1ccc([S+]([O-])c2nccs2)c([N+](=O)[O-])c1 (centres unmarked) | 73.8% |

Other studies, line by line
| SMILES | target or system | test | system | setting | how to read | quantity | result |
| --- | --- | --- | --- | --- | --- | --- | --- |
| O=C(C1=NN(C2CCS(=O)(=O)C2)C(=O)CC1)N1CCN(C/C=C/c2ccccc2)CC1 (centres unmarked) |  |  | human, microsomes or S9 | 2 µM, 0.5 h |  | remaining compound | 36.6% |
| COC(=O)Nc1c(N)nc(-c2nn(Cc3ccccc3F)c3ncc(F)cc23)nc1N |  |  | healthy men | oral, 10 mg daily, multiple dose, added: sildenafil 100 mg | baseline: with over without sildenafil | Cmax ratio | 0.97 |
| COC(=O)Nc1c(N)nc(-c2nn(Cc3ccccc3F)c3ncc(F)cc23)nc1N |  |  | humans, plasma | oral, 10 mg, phase I DDI study, added: rifampicin |  | Cmax | 224 ng/mL |
| COc1cc([C@@H]2c3cc4c(cc3[C@@H](O[C@@H]3O[C@@H]5CO[C@@H](C)O[C@H]5[C@H](O)[C@H]3O)[C@H]3COC(=O)[C@H]23)OCO4)cc(OC)c1O | DNA topoisomerase 2-alpha (TOP2A, Homo sapiens, UniProt P11388) | DNA decatenation, inhibitor, gel-based decatenation |  | 100 µM |  | inhibition | 1.3% and 82% |
| COC(=O)N(C)c1c(N)nc(-c2nn(Cc3ccccc3F)c3ncccc23)nc1N | Calcium/calmodulin-dependent protein kinase type II subunit alpha (CAMK2A, Homo sapiens, UniProt Q9UQM7) | enzyme activity, inhibitor |  | 10 µM |  | inhibition | -11% |
| N#CCC1CCN(c2nc(Nc3ccc(N4CCC(O)CC4)cc3)c3c(=O)[nH]ncc3n2)CC1 |  | vs placebo, Olink multiplex | human, serum | 20 mg, day 15, unit not given | baseline: placebo | IL-18 level difference | -1.06 |
